# Published values collected from several papers.
# Numbered parts are unrelated; each lists some results of a single study. Substitutions count along the parent as printed.

# Study 1
# Target: CCND3, cyclin fold, Cln2 fusion (human)
# Technique: yeast growth competition, sequencing
# Sample: yeast
# Notes: weak parent motif
# Relative to: not given
# Reading: higher = stronger binding
# Starting sequence: RBL2 docking peptide (human); STTRRRLFVENDS; partner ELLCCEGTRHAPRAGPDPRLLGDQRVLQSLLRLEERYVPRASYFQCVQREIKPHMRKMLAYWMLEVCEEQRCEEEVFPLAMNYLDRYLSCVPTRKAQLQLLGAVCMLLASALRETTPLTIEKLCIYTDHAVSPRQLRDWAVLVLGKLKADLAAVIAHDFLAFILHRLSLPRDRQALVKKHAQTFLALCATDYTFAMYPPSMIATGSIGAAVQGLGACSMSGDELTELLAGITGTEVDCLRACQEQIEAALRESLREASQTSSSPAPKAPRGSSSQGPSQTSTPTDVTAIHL
Change,normalised enrichment score
R4M,0.101
R6L,0.2
S13E,0.0668
S1R,0.268
L7T,0.0619
N11I,0.0336
R5D,0.162
N11G,0.165

# Study 2
# Target: PABPC1L2, full length, GST fusion (mouse, UniProt A0ABA7IW68)
# Technique: RNAcompete
# Molecule type: RNA
# Sample: in vitro
# Concentration: 20 nM
# Notes: 7-mer, probes averaged, single round
# Relative to: mean of 7-mers
# Reading: higher = stronger binding
# Construct (chain): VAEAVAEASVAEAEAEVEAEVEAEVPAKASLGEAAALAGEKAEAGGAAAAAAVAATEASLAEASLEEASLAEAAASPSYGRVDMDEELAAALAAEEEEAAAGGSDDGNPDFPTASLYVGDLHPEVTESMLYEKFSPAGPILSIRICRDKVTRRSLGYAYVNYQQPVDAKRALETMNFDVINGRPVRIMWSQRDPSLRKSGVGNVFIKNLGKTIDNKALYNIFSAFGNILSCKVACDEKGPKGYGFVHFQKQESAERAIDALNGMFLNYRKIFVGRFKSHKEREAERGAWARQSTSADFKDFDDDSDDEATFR
Sequence,7-mer Z-score
CAUUUGG,-0.191
UUGAACA,-0.0681
CUGUUUG,-0.474
GGGGGUG,0.282
UUACCGG,-0.237
UCGAUGA,-0.0663
UUCACGC,-0.344
GCUGCAG,-0.219

# Study 3
# Target: Histone acetyltransferase KAT6A, winged helix 2, GST fusion (KAT6A, Homo sapiens, UniProt Q92794, residues 85-181)
# Technique: protein binding microarray
# Molecule type: double-stranded DNA, one strand shown
# Sample: in vitro
# Concentration: not given
# Notes: 8-mer, flanks averaged, mean of 2 arrays, mostly near background
# Relative to: not given
# Reading: higher = stronger binding
# Target sequence (chain): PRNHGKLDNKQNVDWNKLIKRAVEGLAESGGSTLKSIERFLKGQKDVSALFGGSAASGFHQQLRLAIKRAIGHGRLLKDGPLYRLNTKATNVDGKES
Sequence,E-score
AGGGTAAA,-0.0062
GCACAGCA,0.207
ATTCCAAT,0.00874
CAGTTGAG,-0.141
TGAATCCA,0.0572
AGCCGCGG,0.23
GGTCCCAC,0.0546
ATACATTC,-0.166

# Single results of other studies
Compound,cell line,setting,endpoint,value
O=C(CCCCC(=O)Nc1c(I)cc(I)c(C(=O)O)c1I)Nc1c(I)cc(I)c(C(=O)O)c1I,Huh-7,"10 µM, 24 h",viability,101%

# For quick reference, copied from above (study 1):
Change,normalised enrichment score
S13E,0.0668
S1R,0.268
L7T,0.0619
